Published values collected from several papers.
Each line is one published result; not all experiments were run side by side. ± gives the spread as reported.

`N=C(N)NCCC[C@@H]1NC(=O)[C@H](CCCCNC(=O)CNC(=O)CNC(=O)CNC(=O)CC[C@H](NC(=O)CNC(=O)CNC(=O)CNC(=O)CN2CCN(CC(=O)O)CCN(CC(=O)O)CCN(CC(=O)O)CC2)C(=O)NCC(=O)NCC(=O)NCC(=O)NCCCC[C@@H]2NC(=O)[C@@H](Cc3ccccc3)NC(=O)[C@H](CC(=O)O)NC(=O)CNC(=O)[C@H](CCCNC(=N)N)NC2=O)NC(=O)[C@@H](Cc2ccccc2)NC(=O)[C@H](CC(=O)O)NC(=O)CNC1=O` [indium-111 labelled] gave a tissue uptake of 3.77 ± 0.07 %ID/g (female athymic nu/nu mice, intestine; intravenous, 24 h).
`COC(=O)[C@H](CSSC(C)(C)[C@H](NC(=O)[C@H](CCC(=O)NC[C@H](O)[C@@H](O)[C@H](O)[C@H](O)CO)NC(=O)[C@H](CCC(=O)O)NC(=O)[C@H](CCC(=O)NC[C@H](O)[C@@H](O)[C@H](O)[C@H](O)CO)NC(=O)[C@H](CCC(=O)O)NC(=O)[C@H](CCC(=O)NC[C@H](O)[C@@H](O)[C@H](O)[C@H](O)CO)NC(=O)CC[C@H](NC(=O)c1ccc(NCc2cnc3nc(N)[nH]c(=O)c3n2)cc1)C(=O)O)C(=O)O)NC(=O)CC[C@H](NC(=O)c1ccc(NCc2cnc3nc(N)[nH]c(=N)c3n2)cc1)C(=O)O` — result for “AMT release fold change”: no less than 4 fold (human liver cytosol; 1 µM, 1 h, 37 °C, acidic pH; reference: pH 7.4).
`CCCC[C@H](NC(=O)CNC(=O)CNC(=O)CN1CCN(CC(=O)O)CCN(CC(=O)O)CC1)C(=O)N[C@H]1CC(=O)NCCCC[C@@H](C(N)=O)NC(=O)[C@H](Cc2c[nH]c3ccccc23)NC(=O)[C@H](CCCNC(=N)N)NC(=O)[C@@H](Cc2ccccc2)NC(=O)[C@H](Cc2c[nH]cn2)NC1=O` [technetium-99m labelled] gave a tissue uptake of 0.29 ± 0.1 %ID/g (C57 mouse, pancreas; iv, 0.037 MBq, 0.5 h).
With `N=C(N)NCCC[C@@H]1NC(=O)[C@H](CCCCNC(=O)CNC(=O)CNC(=O)CNC(=O)CC[C@H](NC(=O)CNC(=O)CNC(=O)CNC(=O)CC[C@H](NC(=O)CN2CCN(CC(=O)O)CCN(CC(=O)O)CCN(CC(=O)O)CC2)C(=O)NCC(=O)NCC(=O)NCC(=O)N[C@@H](CCC(=O)NCC(=O)NCC(=O)NCC(=O)NCCCC[C@@H]2NC(=O)[C@@H](Cc3ccccc3)NC(=O)[C@H](CC(=O)O)NC(=O)CNC(=O)[C@H](CCCNC(=N)N)NC2=O)C(=O)NCC(=O)NCC(=O)NCC(=O)NCCCC[C@@H]2NC(=O)[C@@H](Cc3ccccc3)NC(=O)[C@H](CC(=O)O)NC(=O)CNC(=O)[C@H](CCCNC(=N)N)NC2=O)C(=O)NCC(=O)NCC(=O)NCC(=O)NCCCC[C@@H]2NC(=O)[C@@H](Cc3ccccc3)NC(=O)[C@H](CC(=O)O)NC(=O)CNC(=O)[C@H](CCCNC(=N)N)NC2=O)NC(=O)[C@@H](Cc2ccccc2)NC(=O)[C@H](CC(=O)O)NC(=O)CNC1=O` [indium-111 labelled] the tissue uptake was 3.45 ± 0.9 %ID/g (female athymic nu/nu mice, kidney; intravenous, 72 h).
For `CC(C)C[C@@H](NC(=O)[C@@H](CC(C)C)NC(=O)[C@@H](CC(=O)O)NC(=O)[C@@H](CC(C)C)NC(=O)[C@@H](CC(C)C)NC(=O)[C@@H](CC(C)C)NC(=O)[C@H](NC(=O)[C@@H](CC(=O)O)NC(=O)[C@H](NC(=O)[C@H]1CCCN1C(=O)[C@@H](Cc1ccccc1)NC(=O)[C@@H](CC(C)C)NC(=O)[C@@H](CC(C)C)NC(=O)[C@@H](CC(=O)O)NC(=O)[C@@H](CC(C)C)NC(=O)[C@@H](Cc1ccc(O)cc1)NC(=O)[C@@H](C)NC(=O)[C@@H](CCCNC(=N)N)NC(=O)[C@@H](Cc1c[nH]c2ccccc12)NC(=O)[C@H]1CCCN1C(=O)[C@@H](CC(N)=O)NC(=O)[C@@H](CCC(N)=O)NC(=O)[C@@H](CC(=O)O)NC(=O)[C@@H](CC(=O)O)NC(=O)[C@@H](CSC1CC(=O)N(CCNC(=O)CN2CCN(CC(=O)O)CCN(CC(=O)O)CC2)C1=O)NC(=O)[C@@H](C)N)[C@H](C)O)[C@H](C)O)C(=O)N[C@H](Cc1c[nH]c2ccccc12)C(=O)O` (stereo partly drawn) [copper-64 labelled], the tumour-to-bone ratio was 4.2 ± 1.7 (male nude mice, LNCaP xenograft; intravenous, 4 h; reference: tumour over bone).
Under “absorbed dose coefficient”, `CN1C(=O)[C@@H](Cc2ccc(O)cc2)NC(=O)CNC(=O)[C@H](Cc2ccc3ccccc3c2)NC(=O)[C@H](CCCNC(=N)N)NC(=O)[C@H]1CCCNC(=O)c1ccc(CNC(=O)CN2CCN(CC(=O)O)CCN(CC(=O)O)CCN(CC(=O)O)CC2)cc1` [gallium-68 labelled] is recorded as 0.012 mGy/MBq (MIRD OLINDA/EXM dosimetry; adult male human, stomach wall; extrapolated from C57BL/6 mice).
`CCCC[C@H](NC(=O)CNC(=O)CNC(=O)CN1CCN(CC(=O)O)CCN(CC(=O)O)CCN(CC(=O)O)CC1)C(=O)N[C@H]1CC(=O)NCCCC[C@@H](C(N)=O)NC(=O)[C@H](Cc2c[nH]c3ccccc23)NC(=O)[C@H](CCCNC(=N)N)NC(=O)[C@@H](Cc2ccccc2)NC(=O)[C@H](Cc2c[nH]cn2)NC1=O` [lutetium-177 labelled] has a tissue uptake of 0.69 ± 0.09 %ID/g (C57 mouse, female, stomach; intravenous, 0.037 MBq, 24 h).
The tissue uptake of `CCCC[C@H](NC(=O)CCCCCCCNC(=O)CN1CCN(CC(=O)O)CCN(CC(=O)O)CC1)C(=O)N[C@H]1CC(=O)NCCCC[C@@H](C(N)=O)NC(=O)[C@H](Cc2c[nH]c3ccccc23)NC(=O)[C@H](CCCNC(=N)N)NC(=O)[C@@H](Cc2ccccc2)NC(=O)[C@H](Cc2c[nH]cn2)NC1=O` [copper-64 labelled] is reported as 30.7 ± 0.94 %ID/g (C57 mice, kidney; intravenous, 0.37 MBq, 0.5 h).
The dose-normalised Cmax of `C=C1CC[C@H](OCCCNC(=O)CCOCCOCCOCCOCCOCCOCCOCCOCCOCCOCCOCCOCCOCCOCCOCCOCCOCCOCCOCCOCCOCCOCCOCCOCCOCCOCCOCCOCCOCCOCCOCCOCCOCCOCCOCCOCCNC(=O)CCN2C(=O)CC(SC[C@H](NC(=O)[C@H](Cc3ccccc3)NC(=O)[C@H](CC(N)=O)NC(=O)[C@H](Cc3c[nH]cn3)NC(=O)[C@@H](NC(=O)[C@H](CC(=O)O)NC(=O)[C@H](CCC(N)=O)NC(=O)[C@H](CC(C)C)NC(=O)[C@H](CCCCN)NC(=O)[C@H](CCCCN)NC(=O)[C@H](CCCNC(=N)N)NC(=O)[C@H](CC(C)C)NC(=O)[C@H](Cc3c[nH]c4ccccc34)NC(=O)[C@H](CCC(=O)O)NC(=O)[C@@H](NC(=O)[C@H](CCCNC(=N)N)NC(=O)[C@H](CCC(=O)O)NC(=O)[C@H](CCSC)NC(=O)[C@H](CO)NC(=O)[C@H](CC(N)=O)NC(=O)[C@H](CC(C)C)NC(=O)[C@H](Cc3c[nH]cn3)NC(=O)[C@H](CCCCN)NC(=O)CNC(=O)[C@H](CC(C)C)NC(=O)[C@H](CC(N)=O)NC(=O)[C@H](Cc3c[nH]cn3)NC(=O)[C@H](CCSC)NC(=O)[C@H](CC(C)C)NC(=O)[C@H](CCC(N)=O)NC(=O)[C@@H](NC(=O)[C@H](CCC(=O)O)NC(=O)[C@H](CO)NC(=O)[C@@H](NC(=O)[C@@H](N)CO)C(C)C)[C@@H](C)CC)C(C)C)C(C)C)C(N)=O)C2=O)C/C1=C/C=C1\CCC[C@]2(C)[C@@H]([C@H](C)CCCC(C)(C)O)CC[C@@H]12` (stereo partly drawn) is reported as 0.93 (cynomolgus monkey; sc, 20 µg/kg every other day, 21 days; reference: 0.7 µg/kg dose).
For `CC(C)C[C@@H](NC(=O)[C@@H](CC(C)C)NC(=O)[C@@H](CC(=O)O)NC(=O)[C@@H](CC(C)C)NC(=O)[C@@H](CC(C)C)NC(=O)[C@@H](CC(C)C)NC(=O)[C@H](NC(=O)[C@@H](CC(=O)O)NC(=O)[C@H](NC(=O)[C@H]1CCCN1C(=O)[C@@H](Cc1ccccc1)NC(=O)[C@@H](CC(C)C)NC(=O)[C@@H](CC(C)C)NC(=O)[C@@H](CC(=O)O)NC(=O)[C@@H](CC(C)C)NC(=O)[C@@H](Cc1ccc(O)cc1)NC(=O)[C@@H](C)NC(=O)[C@@H](CCCNC(=N)N)NC(=O)[C@@H](Cc1c[nH]c2ccccc12)NC(=O)[C@H]1CCCN1C(=O)[C@@H](CC(N)=O)NC(=O)[C@@H](CCC(N)=O)NC(=O)[C@@H](CC(=O)O)NC(=O)[C@@H](CC(=O)O)NC(=O)[C@@H](CS)NC(=O)[C@@H](C)NC(=S)Nc1ccc(CC2CN(CC(=O)O)CCN(CC(=O)O)CCN2CC(=O)O)cc1)[C@H](C)O)[C@H](C)O)C(=O)N[C@H](Cc1c[nH]c2ccccc12)C(=O)O` (stereo partly drawn) [fluorine-18 labelled], “kidney-to-large intestine ratio” read 0.52 ± 0.15 (female BALB/c mice, 4T1 orthotopic tumour; intravenous, 2 h; reference: kidney over large intestine).
With `N=C(N)NCCC[C@@H]1NC(=O)[C@H](CCCCNC(=O)CC[C@H](NC(=O)CC[C@H](NC(=O)CN2CCN(CC(=O)O)CCN(CC(=O)O)CCN(CC(=O)O)CC2)C(=O)N[C@@H](CCC(=O)NCCCC[C@@H]2NC(=O)[C@@H](Cc3ccccc3)NC(=O)[C@H](CC(=O)O)NC(=O)CNC(=O)[C@H](CCCNC(=N)N)NC2=O)C(=O)NCCCC[C@@H]2NC(=O)[C@@H](Cc3ccccc3)NC(=O)[C@H](CC(=O)O)NC(=O)CNC(=O)[C@H](CCCNC(=N)N)NC2=O)C(=O)NCCCC[C@@H]2NC(=O)[C@@H](Cc3ccccc3)NC(=O)[C@H](CC(=O)O)NC(=O)CNC(=O)[C@H](CCCNC(=N)N)NC2=O)NC(=O)[C@@H](Cc2ccccc2)NC(=O)[C@H](CC(=O)O)NC(=O)CNC1=O` [indium-111 labelled] the tissue uptake was 1.23 ± 0.1 %ID/g (female athymic nu/nu mice, eyes; intravenous, 1 h).
`COc1ccc2cc([C@H](C)C(=O)NCCCC[C@@H](NC(=O)[C@@H](Cc3ccccc3)NC(=O)[C@H](N)Cc3ccccc3)C(=O)N[C@H](Cc3ccc(O)cc3)C(=O)O)ccc2c1` gave a cumulative release of 31.7% (hydrogel 0.8 wt% into PBS; 24 h, pH 7.4, 37 °C).

For quick reference, copied from above:
`COC(=O)[C@H](CSSC(C)(C)[C@H](NC(=O)[C@H](CCC(=O)NC[C@H](O)[C@@H](O)[C@H](O)[C@H](O)CO)NC(=O)[C@H](CCC(=O)O)NC(=O)[C@H](CCC(=O)NC[C@H](O)[C@@H](O)[C@H](O)[C@H](O)CO)NC(=O)[C@H](CCC(=O)O)NC(=O)[C@H](CCC(=O)NC[C@H](O)[C@@H](O)[C@H](O)[C@H](O)CO)NC(=O)CC[C@H](NC(=O)c1ccc(NCc2cnc3nc(N)[nH]c(=O)c3n2)cc1)C(=O)O)C(=O)O)NC(=O)CC[C@H](NC(=O)c1ccc(NCc2cnc3nc(N)[nH]c(=N)c3n2)cc1)C(=O)O` — result for “AMT release fold change”: no less than 4 fold (human liver cytosol; 1 µM, 1 h, 37 °C, acidic pH; reference: pH 7.4).
